# Measured values collected from several papers.
# Lines come from different studies, so protocols differ. Several values in a cell are separate wells, animals, samples, runs or records. ± marks the error that the study gave.
# BCHE: Cholinesterase (BCHE, Equus caballus, UniProt P81908)
# Chain of UniProt P81908 (whole entry, looked up): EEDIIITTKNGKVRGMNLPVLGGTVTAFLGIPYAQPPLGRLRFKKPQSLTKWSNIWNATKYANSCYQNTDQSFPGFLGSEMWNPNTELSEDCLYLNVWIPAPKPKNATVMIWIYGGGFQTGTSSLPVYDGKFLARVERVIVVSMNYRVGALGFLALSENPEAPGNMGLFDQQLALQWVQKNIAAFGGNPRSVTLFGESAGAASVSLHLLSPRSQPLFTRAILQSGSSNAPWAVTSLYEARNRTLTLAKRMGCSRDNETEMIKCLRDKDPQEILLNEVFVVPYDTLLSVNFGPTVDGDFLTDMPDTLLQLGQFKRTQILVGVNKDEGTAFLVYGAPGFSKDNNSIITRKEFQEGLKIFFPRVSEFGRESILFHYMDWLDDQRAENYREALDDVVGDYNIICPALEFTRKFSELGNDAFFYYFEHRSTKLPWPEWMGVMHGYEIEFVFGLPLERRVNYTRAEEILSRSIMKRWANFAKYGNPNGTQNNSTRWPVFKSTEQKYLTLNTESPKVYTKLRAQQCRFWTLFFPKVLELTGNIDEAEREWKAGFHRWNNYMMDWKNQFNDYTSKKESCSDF
# Chain of UniProt Q9HCP0 (whole entry, looked up): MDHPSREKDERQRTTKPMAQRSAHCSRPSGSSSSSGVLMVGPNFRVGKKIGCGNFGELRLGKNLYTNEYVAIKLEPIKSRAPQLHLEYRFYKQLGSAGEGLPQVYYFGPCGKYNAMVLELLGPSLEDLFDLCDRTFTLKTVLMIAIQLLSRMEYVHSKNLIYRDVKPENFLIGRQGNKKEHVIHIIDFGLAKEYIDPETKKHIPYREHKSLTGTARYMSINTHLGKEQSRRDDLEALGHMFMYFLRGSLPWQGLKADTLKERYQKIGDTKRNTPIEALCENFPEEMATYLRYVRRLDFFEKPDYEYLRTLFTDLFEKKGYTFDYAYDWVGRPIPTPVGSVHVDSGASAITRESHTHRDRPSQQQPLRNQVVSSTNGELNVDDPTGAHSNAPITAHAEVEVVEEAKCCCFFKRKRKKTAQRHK
# Chain of UniProt O15075 (whole entry, looked up): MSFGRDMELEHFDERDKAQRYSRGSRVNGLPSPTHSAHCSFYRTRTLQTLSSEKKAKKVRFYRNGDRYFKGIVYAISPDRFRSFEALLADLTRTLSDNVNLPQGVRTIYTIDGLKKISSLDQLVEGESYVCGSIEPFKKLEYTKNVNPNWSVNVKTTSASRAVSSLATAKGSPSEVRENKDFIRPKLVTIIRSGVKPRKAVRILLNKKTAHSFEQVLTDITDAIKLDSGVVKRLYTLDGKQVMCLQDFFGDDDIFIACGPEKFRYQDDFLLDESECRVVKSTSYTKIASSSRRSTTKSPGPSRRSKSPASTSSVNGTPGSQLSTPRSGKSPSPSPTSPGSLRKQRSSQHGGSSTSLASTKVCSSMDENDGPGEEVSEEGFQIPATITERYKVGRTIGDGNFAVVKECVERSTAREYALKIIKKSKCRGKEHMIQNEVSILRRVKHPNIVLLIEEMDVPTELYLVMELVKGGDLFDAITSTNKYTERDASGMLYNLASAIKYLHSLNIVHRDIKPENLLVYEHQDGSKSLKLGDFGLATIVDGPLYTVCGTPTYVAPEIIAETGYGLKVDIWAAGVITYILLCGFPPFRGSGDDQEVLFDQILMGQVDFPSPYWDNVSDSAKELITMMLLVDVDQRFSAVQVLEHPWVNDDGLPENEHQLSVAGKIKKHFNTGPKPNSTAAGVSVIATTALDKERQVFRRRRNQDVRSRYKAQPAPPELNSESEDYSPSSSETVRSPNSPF
# Chain of UniProt O43318 (whole entry, looked up): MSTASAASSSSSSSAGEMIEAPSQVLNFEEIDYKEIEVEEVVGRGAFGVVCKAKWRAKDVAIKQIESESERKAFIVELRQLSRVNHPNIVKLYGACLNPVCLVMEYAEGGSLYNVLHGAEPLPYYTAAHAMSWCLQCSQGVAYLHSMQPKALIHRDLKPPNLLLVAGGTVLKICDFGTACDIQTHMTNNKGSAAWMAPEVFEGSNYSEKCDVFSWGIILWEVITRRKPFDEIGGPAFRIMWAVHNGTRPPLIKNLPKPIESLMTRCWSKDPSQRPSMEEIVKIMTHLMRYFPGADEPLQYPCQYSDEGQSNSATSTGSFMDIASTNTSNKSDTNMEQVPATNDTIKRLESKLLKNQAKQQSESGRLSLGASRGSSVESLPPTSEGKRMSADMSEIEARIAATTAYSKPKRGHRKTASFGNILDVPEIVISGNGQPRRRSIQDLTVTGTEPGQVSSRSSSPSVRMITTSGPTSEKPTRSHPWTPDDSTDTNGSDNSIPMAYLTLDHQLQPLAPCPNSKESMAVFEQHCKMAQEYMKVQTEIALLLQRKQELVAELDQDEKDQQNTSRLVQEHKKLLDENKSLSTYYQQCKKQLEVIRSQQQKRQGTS
# Chain of UniProt Q9ULW8 (whole entry, looked up): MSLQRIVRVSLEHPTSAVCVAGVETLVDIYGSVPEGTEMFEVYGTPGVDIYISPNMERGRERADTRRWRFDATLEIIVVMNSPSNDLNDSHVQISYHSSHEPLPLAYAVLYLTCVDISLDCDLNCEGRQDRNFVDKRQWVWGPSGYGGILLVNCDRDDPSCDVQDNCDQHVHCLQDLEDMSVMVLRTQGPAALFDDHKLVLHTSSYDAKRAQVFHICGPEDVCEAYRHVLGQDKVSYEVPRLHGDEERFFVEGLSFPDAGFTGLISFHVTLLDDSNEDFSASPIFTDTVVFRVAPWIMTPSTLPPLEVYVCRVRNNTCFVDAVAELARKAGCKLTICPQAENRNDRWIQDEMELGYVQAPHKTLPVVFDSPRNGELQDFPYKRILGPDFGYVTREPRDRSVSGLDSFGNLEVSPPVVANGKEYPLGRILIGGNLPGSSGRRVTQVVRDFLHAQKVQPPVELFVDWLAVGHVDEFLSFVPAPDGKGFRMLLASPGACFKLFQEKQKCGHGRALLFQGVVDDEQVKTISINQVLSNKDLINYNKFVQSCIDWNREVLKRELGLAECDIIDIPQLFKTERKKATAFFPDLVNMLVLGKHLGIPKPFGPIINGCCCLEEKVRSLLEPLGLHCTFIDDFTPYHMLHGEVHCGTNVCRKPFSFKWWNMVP
# Chain of UniProt P21917 (whole entry, unmodified, looked up): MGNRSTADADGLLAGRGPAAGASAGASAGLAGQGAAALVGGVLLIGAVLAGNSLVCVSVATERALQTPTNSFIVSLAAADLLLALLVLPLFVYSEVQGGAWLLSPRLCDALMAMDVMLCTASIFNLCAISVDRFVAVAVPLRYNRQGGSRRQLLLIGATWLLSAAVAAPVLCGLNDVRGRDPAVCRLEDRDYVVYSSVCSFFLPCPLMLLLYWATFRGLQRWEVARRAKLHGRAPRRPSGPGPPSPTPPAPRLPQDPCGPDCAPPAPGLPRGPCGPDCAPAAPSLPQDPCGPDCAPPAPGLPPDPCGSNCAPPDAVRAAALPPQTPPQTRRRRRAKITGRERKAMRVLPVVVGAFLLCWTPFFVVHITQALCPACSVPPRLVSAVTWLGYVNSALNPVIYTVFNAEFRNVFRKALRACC
# Chain of UniProt Q9NYY3 (whole entry, looked up): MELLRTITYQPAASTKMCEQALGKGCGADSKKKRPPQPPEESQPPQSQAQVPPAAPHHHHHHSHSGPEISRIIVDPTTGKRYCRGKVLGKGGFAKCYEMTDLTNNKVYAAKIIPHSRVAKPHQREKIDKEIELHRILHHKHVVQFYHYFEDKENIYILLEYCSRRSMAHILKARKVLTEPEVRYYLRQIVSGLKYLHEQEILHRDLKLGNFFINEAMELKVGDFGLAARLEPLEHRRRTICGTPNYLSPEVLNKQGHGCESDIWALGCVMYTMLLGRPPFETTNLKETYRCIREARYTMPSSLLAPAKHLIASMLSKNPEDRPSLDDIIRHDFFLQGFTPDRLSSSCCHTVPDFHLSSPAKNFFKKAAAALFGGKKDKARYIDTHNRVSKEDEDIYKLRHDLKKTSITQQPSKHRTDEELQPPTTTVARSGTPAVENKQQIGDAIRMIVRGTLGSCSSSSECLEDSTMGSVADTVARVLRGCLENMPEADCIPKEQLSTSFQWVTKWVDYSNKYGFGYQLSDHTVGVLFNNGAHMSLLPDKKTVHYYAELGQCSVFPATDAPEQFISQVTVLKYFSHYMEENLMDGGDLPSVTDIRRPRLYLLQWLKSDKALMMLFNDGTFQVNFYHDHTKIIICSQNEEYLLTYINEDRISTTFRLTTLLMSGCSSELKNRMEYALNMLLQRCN
SMILES,target or system,assay,test system,conditions,scale,measurement,result
CC(=O)NC[C@@H]1[C@@H](O)C[C@H]2[C@H](O)C[C@@H](CO)N12,Spodoptera litura β-N-acetylglucosaminidase,,crude enzyme,"0.428 µM, run 1, added: p-nitrophenyl GlcNAc",,inhibition,47.6%
N[C@H](C(=O)N1CCCC1)C1CCN(c2nccc3c(-c4ncc(Cl)cc4Cl)cccc23)CC1,"Protein-arginine deiminase type-3 (PADI3, Homo sapiens, UniProt Q9ULW8)","enzyme activity, GDH-coupled",,"0.2458 µM, added: 0.25 mM Ca2+",,inhibition,68.8%
CN(/N=C/c1ccccc1C(=O)O)c1nc(-c2ccccc2Cl)cs1,"Tyrosine-protein kinase Mer (MERTK, Homo sapiens, UniProt Q12866)","enzyme activity, inhibitor",,1 µM,,inhibition,-15.9%
CS(C)(=O)=Nc1ccc(-c2ccc(-c3nc4cc(O[C@@H]5CO[C@H]6[C@@H]5OC[C@H]6O)[nH]c4cc3F)cc2)cc1,"Serine/threonine-protein kinase PLK2 (PLK2, Homo sapiens, UniProt Q9NYY3)","enzyme activity, inhibitor",,10 µM,,inhibition,-11%
CC(C)[C@@H](Nc1nc(Cl)nc2c1ncn2[C@H]1[C@H](O)[C@H](O)[C@]2(CF)C[C@H]12)C1CC1,"5-hydroxytryptamine receptor 2C (HTR2C, Homo sapiens, UniProt P28335)","ligand displacement, radioligand",,10 µM,,inhibition,45%
O=[N+]([O-])c1ccc(-n2cc(CCS(=O)(=O)F)nn2)cc1,BCHE,"enzyme activity, inhibitor, Ellman's method",horse serum BuChE,20 µM,,inhibition,65.5 ± 0.4%
O=C(CN1CN(c2ccccc2)C2(CCN(C(=O)c3cnc4[nH]ncc4c3)CC2)C1=O)NCC(F)(F)F,"Serine/threonine-protein kinase DCLK1 (DCLK1, Homo sapiens, UniProt O15075)",inhibitor,,concentration not given,,inhibition,< 50%
Cc1cc(Oc2nc(N3CC[C@@H](c4ccncc4)C3)ncc2F)[nH]n1,786-O,cell proliferation,,,,IC50,55 µM
COc1ccccc1-c1n[nH]c2nc(N[C@H]3CC[C@H](NS(=O)(=O)CC(C)C)CC3)ncc12,,"bead binding, competition bead pull-down, measured: LINJ.21.0300",Leishmania donovani extract,10 µM,baseline: vehicle,relative abundance,0.66
CN[C@@H]1[C@H](O)[C@H](NC)[C@H]2O[C@]3(O)[C@H](O[C@@H]2[C@H]1O)O[C@H](C)C[C@H]3NC(=O)Cc1ccc(Cl)cn1,"D(4) dopamine receptor (DRD4, Homo sapiens, UniProt P21917, del265-296)","ligand displacement, radioligand",,10 µM,,inhibition,2%
CC(C)[C@H]1NC(=O)C[C@H]2/C=C/CCSSC[C@@H](NC1=O)C(=O)N[C@H](Cc1cccc3ccccc13)C(=O)NCC(=O)O2,"Fibroblast growth factor receptor 3 (FGFR3, Homo sapiens, UniProt P22607, K650M)","enzyme activity, inhibitor",,10 µM,,inhibition,9.6%
O=C1NC(=O)c2c1c1cc(F)c[n+]3c1c1c2c2cc(O)ccc2[n]1[Ru-4]312([N]=C=S)[S+]3CC[S+]1CC[S+]2CC3 (stereo not shown),"Epidermal growth factor receptor (EGFR, Homo sapiens, UniProt P00533, L858R/T790M)",enzyme activity,,"100 nM, human enzyme, added: 10 µM ATP",baseline: untreated,remaining activity,31%
COc1ccccc1-c1n[nH]c2nc(NC3CCN(C(=O)Cc4ccc(F)cc4F)CC3)ncc12,,"bead binding, competition bead pull-down, measured: LINJ.09.0270",Leishmania donovani axenic amastigote extract,10 µM,baseline: vehicle,relative abundance,0.13
CC(C)CC(O)(CC(C)C)c1cn(C(=O)N2CCCC2)nn1,"Platelet-activating factor acetylhydrolase IB subunit alpha2 (Mus musculus, UniProt Q61206)","probe labelling, inhibitor, measured: Pafah1b2","mouse, brain","i.p., 0.8 mg/kg, 4 h, protein level","baseline: treated over vehicle mice, lower = stronger inhibition",activity ratio-of-ratios,1.34
Cc1cc(Nc2nc(C[C@@]3(C(=O)O)CCN(Cc4cccc(Cl)c4F)[C@H](C)C3)cc(C)c2F)[nH]n1,"Histamine H2 receptor (HRH2, Homo sapiens, UniProt P25021)",inhibitor,,10 µM,,inhibition,-3.71%
CCCN,BCHE,"enzyme activity, inhibitor, Ellman",,20 µM,,inhibition,38.1%
COc1ccc(F)cc1S(=O)(=O)Nc1cnc2c(c1)C(=O)NCCO2,NMDA receptor Agonism site,radioligand binding,,10 µM,,inhibition,38%
CCC1CC(c2ccc(C(=O)O)cc2C)=NN1c1ccc(C#N)c(Cl)c1 (stereo not shown),"DNA (cytosine-5)-methyltransferase 3A, with DNMT3L (DNMT3A, Homo sapiens, UniProt Q9Y6K1)",enzyme activity,,10 µM,,inhibition,3%
NCCc1ccccn1,BCHE,"enzyme activity, inhibitor, Ellman",,20 µM,,inhibition,37.2%
CC(C)(C)C(=O)OCOP(=O)(OCOC(=O)C(C)(C)C)C1CCCN(O)C1=O (stereo not shown),786-0,,,,,GI50,0.35 µM
CC[C@H](C)[C@H](NC(=O)[C@H](CO)NC(=O)[C@H](Cc1ccc(O)cc1)NC(=O)[C@H](Cc1ccc(O)cc1)NC(=O)[C@H](CC(N)=O)NC(=O)CNC(=O)[C@H](CO)NC(=O)[C@H](Cc1ccc(O)cc1)NC(=O)[C@H](CO)NC(=O)[C@H](CO)NC(=O)[C@H](CC(N)=O)NC(=O)COCCOCCNC(=O)CN1CCN(CC(=O)O)CCN(CC(=O)O)CCN(CC(=O)O)CC1)C(=O)N[C@@H](CC(C)C)C(N)=O [copper-64 labelled],,dynamic PET,"tamoxifen-induced PDAC mouse model, pancreas","9.5 min, CLDN4-expressing tumours",,maximum pancreas uptake,18.3 %IA/cc
O=C1NC2(CC2)COc2ncc(F)cc2[C@H]2COCCN2c2ccn3ncc1c3n2,,,"Sprague-Dawley rat, female, adrenals","oral, 10 mg/kg/day, 4 weeks, end of treatment",,organ-to-brain weight ratio,3.6 ± 0.7%
O=C(O)c1ccccc1/C=N/Nc1nc(-c2ccccc2Cl)cs1,"Casein kinase I isoform gamma-1 (CSNK1G1, Homo sapiens, UniProt Q9HCP0)","enzyme activity, inhibitor",,1 µM,,inhibition,3.37% and 10.3%
CN(C)[C@H]1C[C@@]23CC[C@@]4(O2)C(=CC[C@]2(C)[C@@H](c5ccc6ccncc6c5)CC[C@H]24)C=C3[C@@H](O)[C@@H]1O,"Mitogen-activated protein kinase kinase kinase 7 (MAP3K7, Homo sapiens, UniProt O43318)","ATP probe labelling, inhibitor, KiNativ profiling",,0.1 µM,,inhibition,7.3%
C[C@H](NCc1ccc(-c2ccc(C(F)(F)F)cc2)cc1)C(N)=O,"Insulin-like growth factor 1 receptor (IGF1R, Homo sapiens, UniProt P08069)","cell-free assay, competition with immobilised ligand",,1 µM,,inhibition,0%

# Some of these lines once more:
SMILES,target or system,assay,test system,conditions,scale,measurement,result
O=C1NC(=O)c2c1c1cc(F)c[n+]3c1c1c2c2cc(O)ccc2[n]1[Ru-4]312([N]=C=S)[S+]3CC[S+]1CC[S+]2CC3 (stereo not shown),"Epidermal growth factor receptor (EGFR, Homo sapiens, UniProt P00533, L858R/T790M)",enzyme activity,,"100 nM, human enzyme, added: 10 µM ATP",baseline: untreated,remaining activity,31%
COc1ccccc1-c1n[nH]c2nc(NC3CCN(C(=O)Cc4ccc(F)cc4F)CC3)ncc12,,"bead binding, competition bead pull-down, measured: LINJ.09.0270",Leishmania donovani axenic amastigote extract,10 µM,baseline: vehicle,relative abundance,0.13
